{"data": "Experimental data collected from several papers", "note": "Numbers after ± are the reported error.", "UniProt P10632, sequence (whole entry, looked up)": "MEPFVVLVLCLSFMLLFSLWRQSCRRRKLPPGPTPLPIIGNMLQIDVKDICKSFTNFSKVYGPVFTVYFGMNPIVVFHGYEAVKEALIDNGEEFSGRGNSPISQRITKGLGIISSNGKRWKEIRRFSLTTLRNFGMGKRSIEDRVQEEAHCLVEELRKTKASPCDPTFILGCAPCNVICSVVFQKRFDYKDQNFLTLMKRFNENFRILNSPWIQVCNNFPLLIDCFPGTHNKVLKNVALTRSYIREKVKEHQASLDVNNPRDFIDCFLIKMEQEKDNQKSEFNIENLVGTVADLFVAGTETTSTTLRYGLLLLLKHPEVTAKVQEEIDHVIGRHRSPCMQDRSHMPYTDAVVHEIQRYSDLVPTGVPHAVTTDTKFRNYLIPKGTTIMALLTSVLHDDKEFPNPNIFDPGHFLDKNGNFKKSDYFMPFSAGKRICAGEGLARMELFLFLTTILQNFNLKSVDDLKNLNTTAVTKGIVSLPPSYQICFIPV", "UniProt O75469, sequence (whole entry, looked up)": "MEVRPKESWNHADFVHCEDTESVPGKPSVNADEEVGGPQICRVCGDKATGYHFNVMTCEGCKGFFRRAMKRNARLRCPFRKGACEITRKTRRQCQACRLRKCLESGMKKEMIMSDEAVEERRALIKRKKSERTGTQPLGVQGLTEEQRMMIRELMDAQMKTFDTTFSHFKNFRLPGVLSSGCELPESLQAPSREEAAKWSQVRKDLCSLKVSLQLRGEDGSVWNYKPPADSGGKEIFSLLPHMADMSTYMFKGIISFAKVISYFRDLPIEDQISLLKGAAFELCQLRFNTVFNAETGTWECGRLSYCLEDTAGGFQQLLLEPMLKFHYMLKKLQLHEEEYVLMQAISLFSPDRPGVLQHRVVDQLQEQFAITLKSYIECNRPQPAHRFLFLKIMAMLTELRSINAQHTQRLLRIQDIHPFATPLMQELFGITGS"}
{"SMILES": "O=C1NC2(CC2)COc2ncc(F)cc2[C@H]2COCCN2c2ccn3ncc1c3n2", "tested on": "Salmonella typhimurium", "test": "Ames test", "test system": "TA97a", "setting": "1500 µg/plate, 48 h, together with: rat liver S9", "measurement": "revertant colonies", "result": "105 ± 7 revertants/plate"}
{"SMILES": "CNC(=O)C1CCCN(C(=O)C2CC3CCC2N3C(=O)[C@@H]2C[C@@H](O)CN2C(=O)NCc2cccc(Cl)c2F)C1 (mixture of isomers)", "tested on": "CYP3A4 (human)", "test": "inhibitor, time-dependent inhibition", "setting": "0.617 µM, preincubated without NADPH, together with: testosterone substrate", "measurement": "6β-hydroxytestosterone formation", "result": "173 ng/mL"}
{"SMILES": "COc1cccc(OC)c1-c1cc(C(=O)NC2(C(=O)O)C3CC4CC(C3)CC2C4)nn1-c1ccc(C(=O)N(C)CCCN(C)C(=O)[C@H](CCCCNC(=O)[C@H](CC(C)C)NC(=O)C2OC2C(=O)O)NC(=O)CN2CCN(CC(=O)[O-])CCN(CC(=O)[O-])CCN(CC(=O)[O-])CC2)cc1C(C)C.[177Lu+3] (mixture of isomers)", "tested on": "HT-29 tumour model", "test system": "host not given, bone", "setting": "72 h, tumour-bearing", "measurement": "tracer uptake", "result": "0.13 %ID/g"}
{"SMILES": "O=S(=O)(NCc1ccncc1)c1ccc(C2CCCCC2)cc1", "tested on": "human hepatocytes", "setting": "1 µM", "measurement": "CLint, scaled", "result": "44.5 mL/min/kg"}
{"SMILES": "CC[C@H](C)[C@H](NC(=O)C[C@H](NC(=O)CN1CCN2CCN(CC1)CC(=O)[O][Al]([18F])[O]C(=O)C2)C(=O)O)C(=O)N[C@H]1CCc2cccc3c2N(C1=O)[C@H](C(=O)NCc1cn[nH]n1)C3", "tested on": "MC-38 tumour model", "test system": "host not given, muscle", "setting": "30 min, tumour-bearing", "measurement": "tracer uptake", "result": "0.42 %ID/g"}
{"SMILES": "N#C[C@@H]1CC(F)(F)CN1C(=O)CNC(=O)c1ccnc2c(NC(=O)[C@H](CCCCNC(=O)CCOCCOCCOCCOCCOCCOCCNC(=O)CN3CCN(CC(=O)[O-])CCN(CC(=O)[O-])CCN(CC(=O)[O-])CC3)NC(=O)CCCc3ccc(I)cc3)cccc12.[177Lu+3]", "tested on": "U-87 MG tumour model", "test system": "host not given, blood", "setting": "4 h, tumour-bearing", "measurement": "tracer uptake", "result": "6.43 %ID/g"}
{"SMILES": "CC[C@H](C)[C@H](NC(=O)[C@H](Cc1ccccc1)NC(=O)[C@H](CCC(=O)O)NC(=O)[C@H](CCCCN)NC(=O)[C@H](C)NC(=O)[C@H](C)NC(=O)[C@H](CCC(N)=O)NC(=O)CNC(=O)[C@H](CCC(=O)O)NC(=O)[C@H](CC(C)C)NC(=O)[C@H](Cc1ccc(O)cc1)NC(=O)[C@H](CO)NC(=O)[C@H](CO)NC(=O)[C@@H](NC(=O)[C@H](CC(=O)O)NC(=O)[C@H](CO)NC(=O)[C@@H](NC(=O)[C@H](Cc1ccccc1)NC(=O)[C@@H](NC(=O)CNC(=O)[C@H](CCC(=O)O)NC(=O)[C@H](C)NC(=O)[C@@H](N)Cc1c[nH]cn1)[C@@H](C)O)[C@@H](C)O)C(C)C)C(=O)N[C@@H](C)C(=O)N[C@@H](Cc1c[nH]c2ccccc12)C(=O)N[C@@H](CC(C)C)C(=O)N[C@H](C(=O)N[C@@H](CCCCN)C(=O)NCC(=O)N[C@@H](CCCN=C(N)N)C(=O)NCC(=O)O)C(C)C", "tested on": "DPP-4 (recombinant)", "test": "substrate, LC-MS", "setting": "500 µM, 12 h", "measurement": "remaining peptide", "result": "~73%"}
{"SMILES": "C=C(NC(=O)c1csc(-c2nc3c(cc2O)-c2nc(cs2)C(=O)NC(C(C)O)C(=O)NC(=C(C)OC)c2nc(cs2)C(=O)NC2c4nc(cs4)C(=O)NC(COC(=O)c4c5c6c(cccc6n4O)COC(=O)C(OC4CC(C)(O)C(N(C)C)C(C)O4)C2OC5)c2nc-3cs2)n1)C(N)=O (stereo not drawn)", "test system": "ICR mice, Streptococcus pneumoniae ATCC 49169 infected, immunocompromised, blood", "setting": "intravenous, 4 mg/kg/day once daily", "measurement": "Cmax", "result": "415 ng/mL"}
{"SMILES": "O=c1c2sccc2n(CC2COc3ccccc3O2)c(=O)n1O (stereo not drawn)", "tested on": "MDCK", "test system": "Caco-2", "setting": "10 µM", "measurement": "efflux ratio", "result": 2.8}
{"SMILES": "N#C[C@@H]1CC(F)(F)CN1C(=O)CNC(=O)c1ccnc2c(NC(=O)CCOCCOCCOCCOCCOCCOCCNC(=O)[C@H](CCCCNC(=O)CN3CCN(CC(=O)[O-])CCN(CC(=O)[O-])CCN(CC(=O)[O-])CC3)NC(=O)CCCc3ccc(I)cc3)cccc12.[177Lu+3]", "tested on": "U-87 MG tumour model", "test system": "host not given, pancreas", "setting": "48 h, tumour-bearing", "measurement": "tracer uptake", "result": "0.39 %ID/g"}
{"SMILES": "O=C1C2CC3CC1CC(C(=O)N1CCN(c4ccc([N+](=O)[O-])c5ncccc45)CC1)(C3)C2", "tested on": "Salmonella typhimurium", "test": "Ames test", "test system": "TA97a", "setting": "0.05 µg/well, without S9", "how to read": "reference: vehicle", "measurement": "revertant fold increase", "result": 1}
{"SMILES": "N=C(N)NCCC[C@@H]1NC(=O)[C@H](CCCNC(=N)N)NC(=O)[C@@H](C(c2ccccc2)c2ccccc2)NC(=O)[C@H](Cc2c[nH]c3ccccc23)NC(=O)[C@@H](C(c2ccccc2)c2ccccc2)NC(=O)[C@@H](CCCNC(=N)N)NC(=O)[C@@H](CCCNC(=N)N)NC1=O", "tested on": "HEKa", "test": "cell growth or viability, MTS", "setting": "100 µg/mL, 24 h", "measurement": "viability", "result": "> 90%"}
{"SMILES": "N#Cc1ccnc(N2C(=O)CC[C@H]2C(=O)N(c2cncc(F)c2)[C@H](C(=O)NC2CC(F)(F)C2)c2ccccc2Cl)c1", "tested on": "NR1I2 (Homo sapiens, UniProt O75469)", "test": "reporter gene, agonist", "setting": "1 µM", "how to read": "reference: rifampicin", "measurement": "activation", "result": "2%"}
{"SMILES": "CC(C)OCCOCc1ccc(OCC(O)CN(N=O)C(C)C)cc1 (stereo not drawn)", "tested on": "Salmonella typhimurium", "test": "Ames test", "test system": "TA100", "setting": "5 µg/plate, without metabolic activation", "how to read": "reference: solvent control", "measurement": "revertant fold increase", "result": "0.9 fold"}
{"SMILES": "N#C[C@@H]1CC(F)(F)CN1C(=O)CNC(=O)c1ccnc2c(NC(=O)[C@@H](N)CCCCNC(=O)CCOCCOCCOCCOCCOCCOCCNC(=O)CN3CCN(CC(=O)[O-])CCN(CC(=O)[O-])CCN(CC(=O)[O-])CC3)cccc12.[177Lu+3]", "tested on": "U-87 MG tumour model", "test system": "host not given, tumour", "setting": "48 h, tumour-bearing", "measurement": "tracer uptake", "result": "0.36 %ID/g"}
{"SMILES": "C=CC(=O)Nc1cc(Nc2nccc(-c3cn(C)c4ccccc34)n2)c(OCC(F)(F)F)nc1N(C)CCN(C)C", "tested on": "Cytochrome P450 2C8 (CYP2C8, Homo sapiens, UniProt P10632)", "test": "substrate", "setting": "3 µM, 60 min, 2C8 isoform, liver abundance-normalized", "measurement": "contribution to substrate depletion", "result": "2.93%"}
{"SMILES": "CC(C)Cc1ccc(C(C)C(=O)N[C@@H](CCCCNC(=O)CCOCCOCCOCCOCCOCCOCCNC(=O)CN2CCN(CC(=O)[O-])CCN(CC(=O)[O-])CCN(CC(=O)[O-])CC2)C(=O)Nc2cccc3c(C(=O)NCC(=O)N4CC(F)(F)C[C@H]4C#N)ccnc23)cc1.[177Lu+3] (stereo partly drawn)", "tested on": "U-87 MG tumour model", "test system": "host not given, muscle", "setting": "24 h, tumour-bearing", "measurement": "tracer uptake", "result": "0.89 %ID/g"}
{"SMILES": "CCN(CC)CC#CCNc1ccnc2cc(Cl)ccc12", "tested on": "Salmonella typhimurium", "test": "mini-Ames test", "test system": "TA100", "setting": "250.0 µg/well, without S9", "measurement": "revertants per well", "result": 30}
{"note": "Excerpt of the above:"}
{"SMILES": "CC(C)Cc1ccc(C(C)C(=O)N[C@@H](CCCCNC(=O)CCOCCOCCOCCOCCOCCOCCNC(=O)CN2CCN(CC(=O)[O-])CCN(CC(=O)[O-])CCN(CC(=O)[O-])CC2)C(=O)Nc2cccc3c(C(=O)NCC(=O)N4CC(F)(F)C[C@H]4C#N)ccnc23)cc1.[177Lu+3] (stereo partly drawn)", "tested on": "U-87 MG tumour model", "test system": "host not given, muscle", "setting": "24 h, tumour-bearing", "measurement": "tracer uptake", "result": "0.89 %ID/g"}
